Measurements pooled from the literature.
Compare with care: the assays were run in different laboratories.

The IC50 of CNS(=O)(=O)Nc1nccc(Cc2c(C)c3ccc(Oc4ncccc4F)cc3oc2=O)c1F is reported as 41.2 nM (LS-1034; cell viability; 7 days).
For COC1CN([C@H]2CC[C@H]([C@@]3(C)Oc4c(Cl)cc(C(=O)NCc5c(SC)cc(C)[nH]c5=O)c(C)c4O3)CC2)C1, “log2 fold change” read 1.03 (RNA-seq, item: NAALAD2; human, whole blood; dose not given, 24 h; baseline: pretreatment baseline).
For CN1CCCNC(=O)c2cccc(c2)C(=O)NCCCN(C)CCCNc2cccc3c2C(=O)c2cccc(c2C3=O)NCCC1, “log2 fold change” read 3.71 (SAS; RNA-Seq, item: SRGAP3 mRNA; 1 µM, 6 h; baseline: untreated cells).
For C=CC(=O)Nc1cccc(Cn2ncc3cnc(Nc4cnn(CCOC)c4)nc32)c1, “percent of control” read 22% (MKNK2 human; binding, KINOMEscan; 100 nM; lower = stronger binding).
C=C(NC(=O)c1csc(-c2nc3c(cc2O)-c2nc(cs2)C(=O)NC(C(C)O)C(=O)NC(=C(C)OC)c2nc(cs2)C(=O)NC2c4nc(cs4)C(=O)NC(COC(=O)c4c5c6c(cccc6n4O)COC(=O)C(OC4CC(C)(O)C(N(C)C)C(C)O4)C2OC5)c2nc-3cs2)n1)C(N)=O (centres unmarked): “lung bacterial load” 6.18 log CFU/g (Streptococcus pneumoniae; -4, immunocompromised mice, lung infection; 4 mg/kg/day, twice daily, 24 h post-dose).
Under “log2 fold change”, Cc1ncsc1-c1ccc(C(C)NC(=O)C2CC(O)CN2C(=O)C(NC(=O)CCCCCCCCCCN2CCCC(Nc3ncc(Cl)c(Nc4ccccc4S(=O)(=O)C(C)C)n3)C2)C(C)(C)C)cc1 (centres unmarked) is recorded as -1.71 (22Rv1; RNA-seq, item: SMAD6 mRNA; concentration not given; baseline: DMSO).
CCN(CC)CC(=O)Nc1cccc(-n2cc(-c3ccc4ccc(-c5cn(-c6cccc(NC(=O)CN(CC)CC)c6)nn5)cc4c3)nn2)c1 has a fold regulation of -1.52 (RCC4; PCR angiogenesis array, item: FGF1; 5 x IC50, 6 h, normoxia; baseline: untreated).
With Nc1ncc(-c2cc(-c3cnn(CC(F)(F)F)c3)ncc2F)nc1C(=O)NC1CNCC(F)C1 (centres unmarked) the remaining binding was 94% (EPHA4; KINOMEscan; 1 µM; baseline: DMSO control).
